Published values from different studies.
Lines come from different studies, so protocols differ. ± marks the error that the study gave. In brackets after ≈: the same amount, converted by molar mass.
Organism: Staphylococcus aureus

Structure (SMILES)	test	test system	setting	how to read	measurement	result
CCc1cc(=O)c2c(O)c3ccoc3c(OC)c2o1	microbial growth, broth dilution	ATCC6538	19 h		MIC	64 µg/mL (≈ 246 µM)
CO/N=C(\C(=O)N[C@@H]1C(=O)N2C(C(=O)O)=C(CSc3nc(=O)c(=O)[nH]n3C)CS[C@H]12)c1csc(N)n1	checkerboard	ATCC 25923	added: magainin II		FIC index	0.312
CCc1cc(=O)c2c(OCC(O)CN3CCC(C)CC3)c3ccoc3c(OC)c2o1 (centres unmarked)	microbial growth, broth dilution	ATCC25	19 h		MIC	> 256 µg/mL
CC[C@H]1OC(=O)[C@H](C)[C@@H](O[C@H]2C[C@@](C)(OC)[C@@H](O)[C@H](C)O2)[C@H](C)[C@@H](O[C@@H]2O[C@H](C)C[C@H](N(C)C)[C@H]2O)[C@](C)(OC)C[C@@H](C)C(=O)[C@H](C)[C@@H](O)[C@]1(C)O	checkerboard broth microdilution	clinical isolate 14-99	added: magainin II		FIC index	0.75
CCC(=O)O[C@H]1[C@H](C)O[C@@H](O[C@H]2[C@H](N(C)C)[C@@H](O)[C@H](O[C@H]3[C@@H](CC=O)C[C@@H](C)[C@@H](O)/C=C/C=C/C[C@@H](C)OC(=O)C[C@@H](O)[C@@H]3OC)O[C@@H]2C)C[C@@]1(C)O		134/93 methicillin-resistant, DMSO-methanol	50 µL of 2.0 mM, 24 h, 37 °C, 9 mm well		inhibition zone diameter	10 mm
Cc1ccc(C=Nc2nc[nH]n2)c(O)c1	broth microdilution	MRSA2, methicillin-resistant	16 to 24 h		MIC	64 µg/mL (≈ 316 µM)
CCN1CCN(C(=O)N[C@@H](C(=O)N[C@@H]2C(=O)N3[C@@H]2SC(C)(C)[C@@H]3C(=O)O)c2ccccc2)C(=O)C1=O	checkerboard broth microdilution	ATCC 27853	added: ranalexin		FIC index	0.75
COCCSc1nnc(C23CC4CC(CC(C4)C2)C3)n1-c1ccccc1		IFO 3060	200 µg/disc, 24 h, 37 °C		inhibition zone diameter	< 10 mm
CCOC(=O)c1c(N)csc1-c1cn(-c2ccccc2)nc1-c1ccc(C)cc1	broth microdilution	clinical urinary isolate	compound gamma-irradiated 10 kGy		MIC	0.123 ± 0.3 µg/mL (≈ 0.305 µM)
CCc1cc(=O)c2c(OCC(O)CNC(C)C)c3ccoc3c(OC)c2o1 (centres unmarked)	microbial growth, broth dilution	ATCC29	19 h		MIC	> 256 µg/mL
CN(C)c1cc(NC(=O)CNC(C)(C)C)c(O)c2c1C[C@H]1C[C@H]3[C@H](N(C)C)C(O)=C(C(N)=O)C(=O)[C@@]3(O)C(O)=C1C2=O		MRSA 5 tetM, mouse thigh infection model	sc, 20 mg/kg, 24 h	relative to: untreated control	log10 CFU change	3.74 log10
CC1(C)S[C@@H]2[C@H](NC(=O)[C@H](N)c3ccccc3)C(=O)N2[C@H]1C(=O)O	microbial growth, disc diffusion	MTCC96	100 µg/mL, 24 h		inhibition zone	23 mm
C[C@@H](O)[C@H]1C(=O)N2C(C(=O)O)=C(S[C@@H]3CN[C@H](C(=O)N(C)C)C3)[C@H](C)[C@H]12	checkerboard	ATCC 25923	added: magainin II		FIC index	0.187
c1ccc(CN(CCN(Cc2ccccn2)Cc2ccccn2)Cc2ccccn2)nc1	microbial killing	MRSA			MBC	375 µM (≈ 159 µg/mL)
